# Measurements pooled from the literature.
# Each line is one published result; not all experiments were run side by side. ± gives the spread as reported. Primed or numbered codes have the meaning given here. Where no end group is shown, it is not given here. No end group written: not given here. [ ]: non-standard residue; d: D form. *: point of attachment.
# B1: SPT5 residues 801-898 (Schizosaccharomyces pombe, UniProt O13936); chain SLISTADGPNVPNWAQGARTPAVANGSRTPAWNTGSRTPAWNSGSKTPAWNSGSRTPAWNSGNKTPAWNAGSRTPAWNSGNKTPAWNVGNKTPAWNSGAK
# B2: HSPB5 (Homo sapiens, UniProt P02511); sequence looked up; chain MDIAIHHPWIRRPFFPFHSPSRLFDQFFGEHLLESDLFPTSTSLSPFYLRPPSFLRAPSWFDTGLSEMRLEKDRFSVNLDVKHFSPEELKVKVLGDVIEVHGKHEERQDEHGFISREFHRKYRIPADVDPLTITSSLSSDGVLTVNGPRKQVSGPERTIPITREEKPAVTAAPKK
# B3: CR2 21-154 (Homo sapiens, UniProt P20023); sequence looked up; chain ISCGSPPPILNGRISYYSTPIAVGTVIRYSCSGTFRLIGEKSLLCITKDKVDGTWDKPAPKCEYFNKYSSCPEPIVPGGYKIRGSTPYRHGDSVTFACKTNFSMNGNKSVWCQANNMWGPTRLPTCVSVFPLEC
# B4: TIMP4 (Homo sapiens, UniProt Q99727); sequence looked up; chain CSCAPAHPQQHICHSALVIRAKISSEKVVPASADPADTEKMLRYEIKQIKMFKGFEKVKDVQYIYTPFDSSLCGVKLEANSQKQYLLTGQVLSDGKVFIHLCNYIEPWEDLSLVQRESLNHHYHLNCGCQITTCYTVPCTISAPNECLWTDWLLERKLYGYQAQHYVCMKHVDGTCSWYRGHLPLRKEFVDIVQP
# B5: metQ residues 17-271 (Escherichia coli); chain SLALVGCGQDEKDPNHIKVGVIVGAEQQVAEVAQKVAKDKYGLDVELVTFNDYVLPNEALSKGDIDANAFQHKPYLDQQLKDRGYKLVAVGNTFVYPIAGYSKKIKSLDELQDGSQVAVPNDPTNLGRSLLLLQKVGLIKLKDGVGLLPTVLDVVENPKNLKIVELEAPQLPRSLDDAQIALAVINTTYASQIGLTPAKDGIFVEDKESPYVNLIVTREDNKDAENVKKFVQAYQSDEVYEAANKVFNGGAVKGW
# B6: rpn10 (Schizosaccharomyces pombe, UniProt O94444); sequence looked up; chain MVLEATMILIDNSEWMINGDYIPTRFEAQKDTVHMIFNQKINDNPENMCGLMTIGDNSPQVLSTLTRDYGKFLSAMHDLPVRGNAKFGDGIQIAQLALKHRENKIQRQRIVAFVGSPIVEDEKNLIRLAKRMKKNNVAIDIIHIGELQNESALQHFIDAANSSDSCHLVSIPPSPQLLSDLVNQSPIGQGVVASQNQFEYGVDPNLDVELALALELSMAEERARQEVAAQKSSEETEDKKMQE
# B7: Sema6a 19-571 I322E (Mus musculus, UniProt O35464); chain GFPEDSEPISISHGNYTKQYPVFVGHKPGRNTTQRHRLDIQMIMIMNRTLYVAARDHIYTVDIDTSHTEEIYCSKKLTWKSRQADVDTCRMKGKHKDECHNFIKVLLKKNDDTLFVCGTNAFNPSCRNYRVDTLETFGDEFSGMARCPYDAKHANIALFADGKLYSATVTDFLAIDAVIYRSLGDSPTLRTVKHDSKWLKEPYFVQAVDYGDYIYFFFREIAVEYNTMGKVVFPRVAQVCKNDMGGSQRVLEKQWTSFLKARLNCSVPGDSHFYFNILQAVTDVIRINGRDVVLATFSTPYNSEPGSAVCAYDMLDIANVFTGRFKEQKSPDSTWTPVPDERVPKPRPGCCAGSSSLEKYATSNEFPDDTLNFIKTHPLMDEAVPSIINRPWFLRTMVRYRLTKIAVDNAAGPYQNHTVVFLGSEKGIILKFLARIGSSGFLNGSLFLEEMNVYNPEKCSYDGVEDKRIMGMQLDRASGSLYVAFSTCVIKVPLGRCERHGKCKKTCIASRDPYCGWVRESGSCAHLSPLSRLTFEQDIERGNTDGLGDCHNS
# B8: erenumab; V domains shown; sequence looked up; VH QVQLVESGGGVVQPGRSLRLSCAASGFTFSSFGMHWVRQAPGKGLEWVAVISFDGSIKYSVDSVKGRFTISRDNSKNTLFLQMNSLRAEDTAVYYCARDRLNYYDSSGYYHYKYYGMAVWGQGTTVTVSS; VL QSVLTQPPSVSAAPGQKVTISCSGSSSNIGNNYVSWYQQLPGTAPKLLIYDNNKRPSGIPDRFSGSKSGTSTTLGITGLQTGDEADYYCGTWDSRLSAVVFGGGTKLTVL
# B9: UGT1A9 (Homo sapiens, UniProt O60656); chain GKLLVVPMDGSHWFTMRSVVEKLILRGHEVVVVMPEVSWQLGRSLNCTVKTYSTSYTLEDLDREFKAFAHAQWKAQVRSIYSLLMGSYNDIFDLFFSNCRSLFKDKKLVEYLKESSFDAVFLDPFDNCGLIVAKYFSLPSVVFARGILCHYLEEGAQCPAPLSYVPRILLGFSDAMTFKERVRNHIMHLEEHLLCHRFFKNALEIASEILQTPVTEYDLYSHTSIWLLRTDFVLDYPKPVMPNMIFIGGINCHQGKPLPMEFEAYINASGEHGIVVFSLGSMVSEIPEKKAMAIADALGKIPQTVLWRYTGTRPSNLANNTILVKWLPQNDLLGHPMTRAFITHAGSHGVYESICNGVPMVMMPLFGDQMDNAKRMETKGAGVTLNVLEMTSEDLENALKAVINDKSYKENIMRLSSLHKDRPVEPLDLAVFWVEFVMRHKGAPHLRPAAHDLTWYQYHSLDVIGFLLAVVLTVAFITFKCCAYGYRKCLGKKGRVKKAHKSKTH
# B10: TLN1 2494-2541 (Homo sapiens, UniProt Q9Y490); C-terminal Oregon Green 488; chain MVGGIAQIIAAQEEMLRKERELEEARKKLAQIRQQQYKFLPSELRDEHGC(Oregon Green 488 maleimide)
# Sequence of UniProt Q16539 (whole entry, looked up): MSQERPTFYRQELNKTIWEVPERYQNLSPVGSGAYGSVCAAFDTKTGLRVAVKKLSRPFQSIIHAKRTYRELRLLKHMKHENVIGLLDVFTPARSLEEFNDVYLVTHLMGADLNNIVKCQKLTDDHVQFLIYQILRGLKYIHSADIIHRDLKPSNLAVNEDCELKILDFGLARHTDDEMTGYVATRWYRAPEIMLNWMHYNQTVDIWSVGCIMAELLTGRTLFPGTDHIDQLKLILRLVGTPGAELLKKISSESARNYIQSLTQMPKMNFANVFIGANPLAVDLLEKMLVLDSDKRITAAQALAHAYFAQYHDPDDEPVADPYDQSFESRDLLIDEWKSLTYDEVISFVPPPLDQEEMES
# Sequence of UniProt P19466 (whole entry, unmodified, looked up): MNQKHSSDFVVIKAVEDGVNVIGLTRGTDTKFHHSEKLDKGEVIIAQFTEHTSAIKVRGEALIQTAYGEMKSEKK
# Sequence of UniProt Q07954 (whole entry, looked up): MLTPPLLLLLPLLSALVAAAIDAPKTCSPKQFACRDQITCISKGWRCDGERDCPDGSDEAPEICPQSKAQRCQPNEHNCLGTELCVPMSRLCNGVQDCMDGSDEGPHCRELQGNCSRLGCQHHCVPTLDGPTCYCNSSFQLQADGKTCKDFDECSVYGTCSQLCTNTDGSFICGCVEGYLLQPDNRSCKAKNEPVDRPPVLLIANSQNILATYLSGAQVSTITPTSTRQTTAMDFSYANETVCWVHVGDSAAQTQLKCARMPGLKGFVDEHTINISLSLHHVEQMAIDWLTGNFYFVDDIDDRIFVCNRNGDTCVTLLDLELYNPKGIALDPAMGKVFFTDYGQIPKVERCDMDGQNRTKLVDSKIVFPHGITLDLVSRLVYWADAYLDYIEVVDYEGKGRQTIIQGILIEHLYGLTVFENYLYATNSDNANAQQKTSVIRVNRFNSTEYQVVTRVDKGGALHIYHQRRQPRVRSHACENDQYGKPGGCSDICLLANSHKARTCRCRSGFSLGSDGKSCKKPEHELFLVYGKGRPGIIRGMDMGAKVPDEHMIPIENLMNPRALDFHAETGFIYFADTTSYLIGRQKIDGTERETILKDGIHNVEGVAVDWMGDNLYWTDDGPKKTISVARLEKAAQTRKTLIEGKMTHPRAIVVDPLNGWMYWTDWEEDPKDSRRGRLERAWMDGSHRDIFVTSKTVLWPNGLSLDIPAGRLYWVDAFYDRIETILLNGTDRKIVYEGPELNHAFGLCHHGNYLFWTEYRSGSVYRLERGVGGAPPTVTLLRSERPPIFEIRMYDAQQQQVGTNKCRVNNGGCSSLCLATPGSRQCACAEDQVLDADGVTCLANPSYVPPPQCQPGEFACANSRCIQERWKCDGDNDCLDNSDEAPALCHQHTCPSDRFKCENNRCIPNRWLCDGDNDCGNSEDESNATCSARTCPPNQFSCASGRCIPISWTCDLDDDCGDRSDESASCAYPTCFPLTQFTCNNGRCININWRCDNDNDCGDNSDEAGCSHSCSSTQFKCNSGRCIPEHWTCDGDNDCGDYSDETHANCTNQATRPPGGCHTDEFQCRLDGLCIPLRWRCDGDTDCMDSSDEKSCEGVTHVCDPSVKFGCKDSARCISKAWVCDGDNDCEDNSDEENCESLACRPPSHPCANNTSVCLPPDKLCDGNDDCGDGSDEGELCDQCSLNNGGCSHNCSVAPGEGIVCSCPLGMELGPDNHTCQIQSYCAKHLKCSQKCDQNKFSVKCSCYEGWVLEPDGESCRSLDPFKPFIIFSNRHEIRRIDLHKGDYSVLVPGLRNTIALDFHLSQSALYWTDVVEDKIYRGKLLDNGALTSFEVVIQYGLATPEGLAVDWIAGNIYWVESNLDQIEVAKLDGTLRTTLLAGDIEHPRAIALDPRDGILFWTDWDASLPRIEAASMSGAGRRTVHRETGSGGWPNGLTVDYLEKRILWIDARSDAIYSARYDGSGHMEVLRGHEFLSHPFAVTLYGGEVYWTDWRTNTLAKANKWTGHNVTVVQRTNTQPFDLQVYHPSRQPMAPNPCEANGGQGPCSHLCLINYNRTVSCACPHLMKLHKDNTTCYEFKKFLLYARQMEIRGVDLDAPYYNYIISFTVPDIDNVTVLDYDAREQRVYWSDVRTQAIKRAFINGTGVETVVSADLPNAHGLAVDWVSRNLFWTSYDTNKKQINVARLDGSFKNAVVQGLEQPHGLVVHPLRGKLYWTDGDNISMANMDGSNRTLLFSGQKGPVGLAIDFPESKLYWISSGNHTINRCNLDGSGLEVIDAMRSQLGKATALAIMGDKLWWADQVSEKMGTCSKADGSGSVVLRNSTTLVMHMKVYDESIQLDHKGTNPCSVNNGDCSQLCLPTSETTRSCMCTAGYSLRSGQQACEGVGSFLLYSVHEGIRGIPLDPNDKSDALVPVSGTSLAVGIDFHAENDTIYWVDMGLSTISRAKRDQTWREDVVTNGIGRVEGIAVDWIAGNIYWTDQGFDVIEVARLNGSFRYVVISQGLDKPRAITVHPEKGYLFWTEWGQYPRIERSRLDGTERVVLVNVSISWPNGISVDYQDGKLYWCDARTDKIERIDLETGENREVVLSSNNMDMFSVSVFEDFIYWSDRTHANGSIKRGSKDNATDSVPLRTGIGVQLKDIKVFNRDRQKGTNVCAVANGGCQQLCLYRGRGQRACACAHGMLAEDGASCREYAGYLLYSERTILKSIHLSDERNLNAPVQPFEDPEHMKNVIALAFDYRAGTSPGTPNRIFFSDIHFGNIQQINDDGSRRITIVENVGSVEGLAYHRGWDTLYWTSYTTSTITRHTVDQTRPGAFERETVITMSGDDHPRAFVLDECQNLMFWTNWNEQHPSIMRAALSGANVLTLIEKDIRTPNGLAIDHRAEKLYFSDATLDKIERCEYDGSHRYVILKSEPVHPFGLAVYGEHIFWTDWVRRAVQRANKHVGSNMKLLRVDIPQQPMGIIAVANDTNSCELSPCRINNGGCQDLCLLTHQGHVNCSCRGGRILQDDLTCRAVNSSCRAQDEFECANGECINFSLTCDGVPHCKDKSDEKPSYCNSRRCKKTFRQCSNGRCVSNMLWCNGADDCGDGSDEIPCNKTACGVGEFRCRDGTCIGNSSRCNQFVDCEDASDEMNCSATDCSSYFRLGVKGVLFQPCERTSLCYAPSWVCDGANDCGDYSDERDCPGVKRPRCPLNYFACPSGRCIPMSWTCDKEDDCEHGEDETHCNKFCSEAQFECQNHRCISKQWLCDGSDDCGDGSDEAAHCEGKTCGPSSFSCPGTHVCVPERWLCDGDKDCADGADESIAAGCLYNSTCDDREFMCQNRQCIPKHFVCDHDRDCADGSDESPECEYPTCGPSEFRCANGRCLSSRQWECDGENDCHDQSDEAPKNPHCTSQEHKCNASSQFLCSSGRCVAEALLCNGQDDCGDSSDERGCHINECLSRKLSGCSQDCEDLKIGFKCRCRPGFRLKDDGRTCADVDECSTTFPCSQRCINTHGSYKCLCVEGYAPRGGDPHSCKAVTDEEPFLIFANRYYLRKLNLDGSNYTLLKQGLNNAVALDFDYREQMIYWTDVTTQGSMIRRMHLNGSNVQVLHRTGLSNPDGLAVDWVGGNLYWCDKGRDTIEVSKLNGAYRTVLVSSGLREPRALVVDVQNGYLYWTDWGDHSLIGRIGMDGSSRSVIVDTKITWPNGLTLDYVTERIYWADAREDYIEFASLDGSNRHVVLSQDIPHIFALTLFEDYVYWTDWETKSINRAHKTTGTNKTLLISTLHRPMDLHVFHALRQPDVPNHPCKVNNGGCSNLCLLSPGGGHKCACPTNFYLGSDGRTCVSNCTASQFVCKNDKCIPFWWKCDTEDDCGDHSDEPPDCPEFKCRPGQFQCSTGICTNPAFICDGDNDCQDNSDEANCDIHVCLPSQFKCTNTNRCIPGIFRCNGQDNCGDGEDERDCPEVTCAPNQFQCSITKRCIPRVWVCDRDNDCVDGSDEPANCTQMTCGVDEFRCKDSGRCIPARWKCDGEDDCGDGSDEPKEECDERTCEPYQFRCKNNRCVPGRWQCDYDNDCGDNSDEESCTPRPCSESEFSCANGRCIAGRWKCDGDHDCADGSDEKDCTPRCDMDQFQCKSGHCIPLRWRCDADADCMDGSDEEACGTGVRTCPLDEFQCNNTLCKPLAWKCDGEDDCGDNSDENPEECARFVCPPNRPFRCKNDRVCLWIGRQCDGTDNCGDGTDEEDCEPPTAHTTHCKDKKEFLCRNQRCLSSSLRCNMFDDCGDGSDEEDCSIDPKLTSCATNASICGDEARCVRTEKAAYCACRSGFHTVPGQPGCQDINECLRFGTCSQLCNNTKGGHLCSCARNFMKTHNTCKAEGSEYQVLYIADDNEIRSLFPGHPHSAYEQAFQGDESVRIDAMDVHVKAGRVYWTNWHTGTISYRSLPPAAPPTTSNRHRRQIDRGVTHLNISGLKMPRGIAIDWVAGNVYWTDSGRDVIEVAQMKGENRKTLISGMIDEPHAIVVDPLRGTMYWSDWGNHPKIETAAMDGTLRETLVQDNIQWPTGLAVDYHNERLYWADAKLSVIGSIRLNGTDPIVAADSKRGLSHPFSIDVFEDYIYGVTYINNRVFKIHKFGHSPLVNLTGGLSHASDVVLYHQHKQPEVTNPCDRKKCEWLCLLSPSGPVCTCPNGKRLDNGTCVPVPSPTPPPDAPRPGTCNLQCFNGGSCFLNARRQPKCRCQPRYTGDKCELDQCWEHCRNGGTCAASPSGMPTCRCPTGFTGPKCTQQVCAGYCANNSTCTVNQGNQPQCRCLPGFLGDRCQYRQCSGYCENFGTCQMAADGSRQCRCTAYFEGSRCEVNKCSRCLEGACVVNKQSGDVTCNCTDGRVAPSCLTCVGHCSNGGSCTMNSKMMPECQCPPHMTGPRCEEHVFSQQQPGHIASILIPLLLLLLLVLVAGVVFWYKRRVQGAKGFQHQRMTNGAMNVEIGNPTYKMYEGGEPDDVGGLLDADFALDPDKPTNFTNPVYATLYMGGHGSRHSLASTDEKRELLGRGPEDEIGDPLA
# Sequence of UniProt P26447 (whole entry, looked up): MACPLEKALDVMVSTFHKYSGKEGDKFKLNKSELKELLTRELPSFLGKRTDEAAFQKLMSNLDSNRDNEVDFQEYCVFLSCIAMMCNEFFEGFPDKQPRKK
Molecule,tested on,test,system,conditions,measurement,value
ART[Lys(Me3)]QTARKSTG (histone H3 2-13 (UniProt P68431); K4me3; Lys(Me3) = C[N+](C)(C)CCCC[C@H](N)C(=O)O; sequence looked up),"BIRC5 1-142 (Homo sapiens, UniProt O15392)",ITC,peptide,pH 7.2,Kd,87 ± 10 µM
"NSKQNLNVSLSDEMNEDFRSGSEAFDLIAQDEEEFNKEHQFIQEENIDAHN (CEP192 491-541 (Homo sapiens, UniProt Q8TEP8))","AURKA kinase domain 123-403, phosphorylated (Homo sapiens, UniProt O14965)",ITC,,,Kd,1.9 µM
B1 (SPT5 residues 801-898),"pce1/rpb1 CTD four heptads, Pce1-GMP, pSer5, N-terminal BODIPY-FL (Schizosaccharomyces pombe)",fluorescence polarisation,,,Kd,0.18 ± 0.06 µM
"TKDELTKIMDRASKIEQIQKLAKYAISALNYEDLPRAKDELTKALDLLNSI (VTA1 280-330 T315R (Saccharomyces cerevisiae, UniProt Q06263); sequence looked up)","VPS4 299-415 (Saccharomyces cerevisiae, UniProt P52917)",SPR,,"pH 7.0, NaCl 150 mM, equilibrium fit",Kd,440 ± 61 µM
RRRRRRRC / CKNYKKTEV (peptide),"DLG4 309-422 (Homo sapiens, UniProt P78352)",SPR,peptide,,Kd,0.191 µM
B2 (HSPB5),"BAG3 (Homo sapiens, UniProt O95817)",ITC,,"25 °C, relative values",Kd,5 µM
B3 (CR2 21-154),"FCER2 156-298 (Homo sapiens, UniProt P06734)",SPR,,"pH 7.4, 25 °C, NaCl 150 mM",Kd,0.87 µM
proNGF residues -121 to 118 three furin sites to alanine (Mus musculus),"SORT1 extracellular region 34-725 (Homo sapiens, UniProt Q99523)",SPR,,25 °C,Kd,0.77 µM
B4 (TIMP4),"LRP1 (Homo sapiens, UniProt Q07954)",SPR,,25 °C,Kd,0.024 ± 0.01 µM
B5 (metQ residues 17-271),metN/metI E166Q (Escherichia coli),MST,,"pH 8.5, 25 °C, NaCl 100 mM, added: ATP 1 mM",Kd,1.1 ± 0.3 µM
B6 (rpn10),"rpn12 1-250, Oregon Green label (Schizosaccharomyces pombe, UniProt P50524)",fluorescence polarization,,"0-370 µM, 20 min, pH 7.4, 25 °C, NaCl 150 mM",Kd,17.8 ± 2.7 µM
B7 (Sema6a 19-571 I322E),"PlxnA2 35-703 (Mus musculus, UniProt P70207)",SPR,,"pH 7.5, 25 °C, NaCl 150 mM, equilibrium, monovalent",Kd,1.3 µM
KVGFFKRNRPPLEEDDEEGE (ITGA2B 989-1008 (Homo sapiens)),Myom1 fragment (Mus musculus),SPR,peptide,two-state model,Kd,248 µM
"TPDYLMALMNDKKLMSSLPNFSGIFNHLERLLDEEISRVRKDMYNDTLNGSTEK (Qki 14-67 C35S/Q20A (Mus musculus, UniProt Q9QYS9))",itself,CD thermal melting,,50 µM,melting temperature,65 °C
"{5‑TAMRA-Ahx}-NLSELDRLLDELN (PXN residues 141-153 L10D; N-terminal TAMRA, aminohexanoyl linker; 5‑TAMRA = CN(C)c1ccc2c(-c3ccc(C(=O)*)cc3C(=O)[O-])c3ccc(N(C)C)cc3[o+]c2c1; Ahx = NCCCCCC(=O)O)","PTK2 892-1052 K955A/E948A/R962A/I936D (Homo sapiens, UniProt Q05397)",fluorescence polarisation,peptide,,Kd,266 µM
B8 (erenumab),CALCR/RAMP1 on cells (Homo sapiens),"cAMP production, antagonist, global Gaddum-Schild","antibody, HEK293S",added: αCGRP,pKB,7.04
"S100A4, QSY 35 on amines (Homo sapiens, UniProt P26447)","SRXN1 C99S, Alexa 546 label (Homo sapiens)",FRET,,"apparent, with Ca2+, added: Ca2+",Kd,0.0304 µM
SYK tandem SH2 domains,"CLEC1B fragment, pY7 (Homo sapiens)",SPR,,equilibrium Kd,Kd,0.256 µM
{5FAM′}-DDTSRMEKVD (HSP90AA1 723-732 E730K (UniProt P07900); N-terminal 5-FAM; 5FAM′ = 5-carboxyfluorescein; sequence looked up),"STUB1 (Homo sapiens, UniProt Q9UNE7)",fluorescence polarisation,peptide,"pH 7.4, 25 °C, added: 5-Fam tracer 20 nM",Kd,6.5 ± 1.5 µM
B9 (UGT1A9),CCCOC(=O)c1ccc(O)cc1,steady-state kinetics,,"pH 7.4, 37 °C",Vmax/Km,30 µL/min/mg
"histone H3 fragment, K36me2 (sequence not shown)",MORF4L1 fragment (Homo sapiens),NMR titration,,"pH 7.5, 25 °C",Kd,1140 ± 390 µM
B10 (TLN1 2494-2541),"TLN1 2293-2541 (Homo sapiens, UniProt Q9Y490)",fluorescence polarisation,peptide,"pH 7.2, 4 °C, added: Oregon Green-labelled DD-GC 25 nM",Kd,1.9 ± 0.2 µM
IGLQERRGSNVSLTLDM (PTPRR KIM peptide),MAPK14 unphosphorylated (UniProt Q16539),ITC,peptide,25 °C,Kd,2.84 ± 0.135 µM
TPTPSARRTIGPRAPKSKTTY (Cdc12 residues 20-40 (Schizosaccharomyces pombe)),"cdc15 19-312 E30K/E152K (Schizosaccharomyces pombe, UniProt Q09822)",ITC,peptide,"pH 8.0, 25 °C, NaCl 100 mM",Kd,5 µM
GAGUUGAGUUGAGUUGAGUUGAGUUGAGUUGAGUUGAGUUGAGUUGAGUUGAGUU (ssRNA; single strand),"mtrB full length assumed T30V/K56L (Bacillus subtilis, UniProt P19466)",filter binding,,added: L-tryptophan 1 mM,Kd,0.093 ± 0.007 µM
GGGAGACCUAGCCUCAUAUAAUCGUUGUCCAGAAUUGUAUAUAUUCGUAGCAUAAGUUUUCCAAACAUUAUUUUGUUGUCGAAAAUUGUACAUAAGCCAAUUAAGCCGCUAAUUCU (ssRNA),"brat 756-1037 (Drosophila melanogaster, UniProt Q8MQJ9)",UV cross-linking MS,,,binding,binds
Il2rg extracellular domain (Mus musculus) (sequence not shown),Il2rb fragment (Mus musculus),SPR,,"25 °C, monomeric form, single-site fit",Kd,695 ± 76 µM
